Published values of several laboratories.
Each numbered part is a random draw from the data of one study; scales do not carry over between parts.

Study 1
Target: RNA binding protein fox-1 homolog 2, RRM domain, GST-SBP tag (RBFOX2, Homo sapiens, UniProt O43251-10, residues 100-194)
Technique: RNA Bind-n-Seq
Form: RNA
Matrix: in vitro
Tested at: 365 nM
Notes: natural RNA segment, single round, ends assumed
Baseline: no-protein control
Reading: higher = stronger binding
Shared flanks, not repeated: GGGAGUUCUACAGUCCGACGAUC … UGGAAUUCUCGGGUGCCAA
Residues (chain): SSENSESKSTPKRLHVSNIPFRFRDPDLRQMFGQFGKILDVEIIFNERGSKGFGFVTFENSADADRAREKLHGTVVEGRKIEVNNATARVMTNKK
Under “RBNS enrichment (R)”, `AACAUGUUGGUGGGUAAUUAUGCGAAUGUUUCCCUGUCCCUGAUUUCUCGAUUAGGCGUAUGGGUUUUGAAAAAGAGAUUUUUCAGAAGAUUGUCAGCUUCAGUAUUCAU` is recorded as 0.353.
For `GCUUGAUGUGAAGUCCUCUAGAAUGUUUACAUUUACUAAGGUGUGCUGGGUCCUGUCUCUUUUGACUAAUAUUUUCGUAAACAUUAGGCUGGAGAAAGGAAGGAAGCAGU`, “RBNS enrichment (R)” read 0.432.
Under “RBNS enrichment (R)”, `AAGGGGGUCAUAGAAACCAGGGCUGAUGGGCACCCCCCAGCCCCUGGGAGCUCUGCUCAUGACCGCUCACAGGGUACCGAGUCUUUGCCUUUUGUGUGUGCGCAUGCUGC` is recorded as 3.44.
`CCUCCCGGAAUCCGAGAUAGGGUGGCACAUCUGUCCUGACAGACGAGGAGUGUAACUGAACCAGGAAUAUUUCCUCCAUUCCUGCUCUCCCACUGCACACAGGGUGGUGG`: “RBNS enrichment (R)” 0.358.
Under “RBNS enrichment (R)”, `UAUAGGACUCAGUCCUUAGAUGUUCUUUUUAUUUUAAGAAAUAACCUCUUCAAGUUGUAACCGUGGCGGCUUUGUCCAUUACUGUUGCUAUUCUGCACACAUAUCGGAAG` is recorded as 0.532.
Under “RBNS enrichment (R)”, `ACUAGAUUAGGACUAUUACAUCCAAGGCACUGGGGGAUUCUGGUGGGCUCCAAAUUAGCUUUACUGAUUGAACAUCCACAGAGAUGGAGGCAUUUAAUACAAAACCAGGA` is recorded as 0.336.
For `UUAGUAGAUGGGGUUUCAUCAUGUUGGCCAGGCUGGUUUUGAACUCCUGACUUCAAAUGAUCCACCCACAUCCACCUGCCAGAGUGCUGAGAUUACAGGCGUGAGCCACC`, “RBNS enrichment (R)” read 0.604.

Study 2
Target: Prothrombin, mature alpha-thrombin (F2, Homo sapiens, UniProt P00734)
Technique: aptamer microarray, sandwich
Form: DNA with 2'F-ANA
Matrix: in vitro
Tested at: 200 nM
Notes: whole 15-mer aptamer, many near background
Added: Cy3 exosite-II aptamer, 400 nM
Reading: higher = stronger binding
Strand: GGTTGGTGTGGTTGG
For `2'F-ANA at 1 6 7 8 9 11 12`, “mean fluorescence intensity” read 323 a.u.
For `2'F-ANA at 2 4 5 7 8 10 14 15`, “mean fluorescence intensity” read 82.1 a.u.
`2'F-ANA at 2 6 9 10 11 13`: “mean fluorescence intensity” 146 a.u.
`2'F-ANA at 3 6 8 10` — result for “mean fluorescence intensity”: 517 a.u.
`2'F-ANA at 4 6 8 13 14` — result for “mean fluorescence intensity”: 79.1 a.u.
`2'F-ANA at 2 3 4 5 11 12 14 15` — result for “mean fluorescence intensity”: 56.4 a.u.
`2'F-ANA at 1 2 4 5 6 7 8 11 13 14` — result for “mean fluorescence intensity”: 49.4 a.u.
Under “mean fluorescence intensity”, `2'F-ANA at 1 2 6 10 12 14 15` is recorded as 64.9 a.u.
`2'F-ANA at 1 4 6 7 13 14 15`: “mean fluorescence intensity” 94.2 a.u.
`2'F-ANA at 1 4 5 7 9 10 11 12 14`: “mean fluorescence intensity” 45.7 a.u.

Study 3
Target: Ras GTPase-activating protein-binding protein 1, RRM domain (G3BP1, Homo sapiens, UniProt Q13283)
Sequence of UniProt Q13283 (whole entry, looked up): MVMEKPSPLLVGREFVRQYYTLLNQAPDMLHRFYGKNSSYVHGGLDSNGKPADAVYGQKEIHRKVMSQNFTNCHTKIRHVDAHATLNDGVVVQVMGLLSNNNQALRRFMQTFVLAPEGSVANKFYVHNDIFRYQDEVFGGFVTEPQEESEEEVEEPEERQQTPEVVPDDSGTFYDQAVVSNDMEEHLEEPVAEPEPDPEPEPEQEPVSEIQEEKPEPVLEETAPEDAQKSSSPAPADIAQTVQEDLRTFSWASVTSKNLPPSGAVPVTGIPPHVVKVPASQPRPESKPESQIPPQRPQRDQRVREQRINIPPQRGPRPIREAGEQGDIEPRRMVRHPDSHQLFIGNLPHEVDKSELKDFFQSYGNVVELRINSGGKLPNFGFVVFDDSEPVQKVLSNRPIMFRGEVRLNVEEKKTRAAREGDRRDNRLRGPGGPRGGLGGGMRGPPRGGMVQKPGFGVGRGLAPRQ
Technique: RNA Bind-n-Seq
Form: RNA
Matrix: in vitro
Tested at: 1 µM
Notes: whole 134-nt RNA, ends assumed
Added: 150 mM KCl
Baseline: input library
Reading: higher = stronger binding
Shared flanks, not repeated: GGGAGUUCUACAGUCCGACGAUC … UGGAAUUCUCGGGUGUCAAGG
`UUUGAAAAAGAAGAAAAAGAAAAAGAAGGGUAAGGCAUUAAAAAAGUCUUUAUAAAUUUUCUCCAAAAUAAAUGUUUGAUUUUAGCCCUA` has a log2 enrichment of -0.18.
The log2 enrichment of `UGUGCUACACAUCGUAUGUACCGAAUCGGGGUUUUUUUGGGGAAAAAAAGGGGUUUUUGGGGAAAGUAUUAUGUUACGCCGUUCGGAUCU` is reported as 0.783.
For `UCAAGUCCUGUGCUACACAUCGUAUGUACCGAAUCGGUGGUUUUUGGUUUUUGGAAAGUAUUAUGUUACGCCGUUCGGAUCUGCACUUCC`, the log2 enrichment was -0.158.
For `CCUCAAGUCCUGUGCUACACAUCGUAUGUACCGAAUCGGUGGGGUGGUGGGGAAAGUAUUAUGUUACGCCGUUCGGAUCUGCACUUCCAG`, the log2 enrichment was -0.208.
`CCUGUGCUACACAUCGUAUGUACCGAAUCGGGGUUUUUUUGGGGUUUUUGGGGAAAGGGGAAAGUAUUAUGUUACGCCGUUCGGAUCUGC` has a log2 enrichment of 0.265.
For `GGCAGUAGCAGCAGCGCCGGGUCCCGUGCGGAGGUGCUCCUCGCAGAGUUGUUUCUCGAGCAGCGGCAGUUCUCACUACAGCGCCAGGAC`, the log2 enrichment was -0.546.

Further values, each from its own experiment
The fold induction of `PhoQ, residues 284 288 289 292 302 303 SQSLSM` is reported as 0.735 (PhoP, residues 12 14 15 18 19 NQAHL (Escherichia coli, UniProt P23836); Sort-seq, measured: YFP reporter; E. coli; PhoQ-PhoP variant library, added: 10 µM Mg2+; baseline: high Mg2+ state, higher = stronger signaling).

Some of these lines once more (study 1):
Under “RBNS enrichment (R)”, `AAGGGGGUCAUAGAAACCAGGGCUGAUGGGCACCCCCCAGCCCCUGGGAGCUCUGCUCAUGACCGCUCACAGGGUACCGAGUCUUUGCCUUUUGUGUGUGCGCAUGCUGC` is recorded as 3.44.
For `UUAGUAGAUGGGGUUUCAUCAUGUUGGCCAGGCUGGUUUUGAACUCCUGACUUCAAAUGAUCCACCCACAUCCACCUGCCAGAGUGCUGAGAUUACAGGCGUGAGCCACC`, “RBNS enrichment (R)” read 0.604.
Under “RBNS enrichment (R)”, `UAUAGGACUCAGUCCUUAGAUGUUCUUUUUAUUUUAAGAAAUAACCUCUUCAAGUUGUAACCGUGGCGGCUUUGUCCAUUACUGUUGCUAUUCUGCACACAUAUCGGAAG` is recorded as 0.532.
For `GCUUGAUGUGAAGUCCUCUAGAAUGUUUACAUUUACUAAGGUGUGCUGGGUCCUGUCUCUUUUGACUAAUAUUUUCGUAAACAUUAGGCUGGAGAAAGGAAGGAAGCAGU`, “RBNS enrichment (R)” read 0.432.
